Published values collected from several papers.
Every numbered part comes from another study and shows a few of its results, in no order.

Block 1
Target: Ras GTPase-activating protein-binding protein 1, RRM domain (G3BP1, Homo sapiens, UniProt Q13283)
UniProt Q13283, sequence (whole entry, looked up): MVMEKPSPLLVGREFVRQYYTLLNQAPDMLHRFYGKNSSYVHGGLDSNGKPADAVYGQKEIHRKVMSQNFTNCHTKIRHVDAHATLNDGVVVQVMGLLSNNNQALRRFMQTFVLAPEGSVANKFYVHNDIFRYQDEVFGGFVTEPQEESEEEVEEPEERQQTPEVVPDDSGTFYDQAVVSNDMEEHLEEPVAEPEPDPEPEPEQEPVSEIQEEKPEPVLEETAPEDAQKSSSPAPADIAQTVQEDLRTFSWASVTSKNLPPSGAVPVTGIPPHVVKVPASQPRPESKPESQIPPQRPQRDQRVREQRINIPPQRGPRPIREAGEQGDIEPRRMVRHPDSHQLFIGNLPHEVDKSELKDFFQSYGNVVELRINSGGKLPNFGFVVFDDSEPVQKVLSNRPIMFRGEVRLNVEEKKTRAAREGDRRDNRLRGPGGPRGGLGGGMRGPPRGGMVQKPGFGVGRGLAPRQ
Technique: RNA Bind-n-Seq
Molecule type: RNA
Medium: in vitro
Tested at: 1 µM
Setting: whole 134-nt RNA, ends assumed
Together with: 150 mM KCl
Relative to: input library
Direction: higher = stronger binding
All sequences stand within: GGGAGUUCUACAGUCCGACGAUC … UGGAAUUCUCGGGUGUCAAGG
Oligonucleotide | log2 enrichment
UGUGCUACACAUCGUAUGUACCGAAUCGGGGAAAAAGGGGAAAAAAAGGGGUUUUUUUGGGGAAAGUAUUAUGUUACGCCGUUCGGAUCU | 1.38
ACCGUGCAGGUGGGCAUCUUUGGGAAGUGGGGCAAGGGGGGGAUAGGGAGGGGGGUAACACUUUGGGAACAGGUGGUCCCAGGUCGUUUC | -0.618
UGGCCCUGGUGGCAUGCGGGGAGGAAGAGGUGGCCUCAUGGAUAGUGGUGGUCCCGGUGGAAUGUUCAGAGGUGGCCGUGGUGGAGACAG | 1.07
UCAAGUCCUGUGCUACACAUCGUAUGUACCGAAUCGGAAAAAGGAGGUUUUUGGAAAGUAUUAUGUUACGCCGUUCGGAUCUGCACUUCC | -0.143
CACAGACAACACGAACCCACACAGACACAGAGGGAAGGGGUUGGGAUGGGGACAGGGUGCACAGCAGGGCGGGGUAGGACCCCAGCCCCU | 0.229
UCCUGUGCUACACAUCGUAUGUACCGAAUCGGUUUUUUGGGGUUUUUUGGUUUUUUGGGGAAAGUAUUAUGUUACGCCGUUCGGAUCUGC | -0.198
GUCCUGUGCUACACAUCGUAUGUACCGAAUCGGGCCCCCGGCCCCCGGGGCCCCCGGGGAAAGUAUUAUGUUACGCCGUUCGGAUCUGCA | -0.688
CAAGUCCUGUGCUACACAUCGUAUGUACCGAAUCGGUUUUUUUGGAAAAAGGAGGAAAGUAUUAUGUUACGCCGUUCGGAUCUGCACUUC | -0.359
UGCUUCUGAGUUGCCCAGGAGACCACUGGCAGAUGUCCCGGCGAAGAGAAGAGACACAUUGUUGGAAGAAGCAGCCCAUGACAGCUCCCC | -0.211
ACCAUGCAGGUGGGCAUUUUUGGGAAGUGGGGCAAGGGGGGGAUAGGGAGGGGGGUAACACUUUGGGAACAGGUGGUCCCAGGUCGUUUC | -0.486
CUGUGCUACACAUCGUAUGUACCGAAUCGGGUUUUUUUGGGGUUUUUUUGGGUUUUUUUGGGAAAGUAUUAUGUUACGCCGUUCGGAUCU | -0.136
UCCUGUGCUACACAUCGUAUGUACCGAAUCAAACCCCCAAACCCCCCCAAAUUUUUAAAAAAGUAUUAUGUUACGCCGUUCGGAUCUGCA | -0.0604
UGGCCCUGGUGGCAUGCGGGGAGGCAGAGGUGGCCUCAUGGAUCGUGGUGGUCCCGGUGGAAUGUUCAGAGGUGGCCGUGGUGGAGACAG | 0.903
AGUCCUGUGCUACACAUCGUAUGUACCGAAUCGGGAAAAGGGGAAAAGGGGAAAAGGGAAAGUAUUAUGUUACGCCGUUCGGAUCUGCAC | 0.573

Block 2
Target: Interferon regulatory factor 7, full length, phosphomimetic (IRF7, Homo sapiens, UniProt Q92985, residues 1-503, S471D/S472D/S475D/S476D/S477D/S483D/S484D/S487D)
Technique: protein-binding microarray
Molecule type: double-stranded DNA, one strand shown
Medium: in vitro
Tested at: 2200 nM top
Setting: 60-bp whole probe
Together with: salmon DNA 0.4 mg/ml
Relative to: random background probes
Direction: higher = stronger binding
All sequences stand within: GCCTAGCAC … GTCTTGATTCGCTTGACGCTGCTG
Construct (chain): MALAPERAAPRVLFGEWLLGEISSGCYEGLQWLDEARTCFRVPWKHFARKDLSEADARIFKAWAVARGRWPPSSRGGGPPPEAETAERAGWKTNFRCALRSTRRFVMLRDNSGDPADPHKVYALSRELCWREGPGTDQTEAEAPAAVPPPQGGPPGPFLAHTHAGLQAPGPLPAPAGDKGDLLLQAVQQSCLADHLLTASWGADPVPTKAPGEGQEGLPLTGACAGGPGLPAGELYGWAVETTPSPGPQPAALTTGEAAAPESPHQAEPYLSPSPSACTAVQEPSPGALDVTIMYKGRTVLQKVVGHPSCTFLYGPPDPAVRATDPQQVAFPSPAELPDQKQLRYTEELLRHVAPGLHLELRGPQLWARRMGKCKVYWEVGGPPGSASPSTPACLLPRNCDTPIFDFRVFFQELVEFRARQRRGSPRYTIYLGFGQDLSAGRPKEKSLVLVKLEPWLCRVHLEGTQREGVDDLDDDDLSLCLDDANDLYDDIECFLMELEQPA
Oligonucleotide | fitted relative affinity
TACCTTAGGTTTTCTGGTTCCGTGCTA | 2.46 z-score
TAAGGTTCCCTTTTCCTTTAGTGCTAG | 3.07 z-score
TTAGTACTGGGGACTGGGTTAGTGCTA | -0.437 z-score
TTCTAAACCATTTTGGTTTTGTGCTAG | 0.69 z-score
TTAGTACTGGGACTGGGTTAGTGCTAG | -0.161 z-score
TTAGATTTCAGTTCTGATTAGTGCTAG | 1.33 z-score
GGAGGTCTGGATGTGCCGCGGTGCTAG | -1.11 z-score
GGCGCTTTTTTTCCGAGTGAGTGCTAG | 0.444 z-score
TTAGATATCAATTTCGATTAGTGCTAG | 2.58 z-score
TTAGGACTGCTTATCCATTAGTGCTAG | 0.127 z-score
TCACTTTCCATTTCTGTTACTGTGCTA | 10.7 z-score
TTAGGTCTCGGTCTCGGTTCGTGCTAG | 1.53 z-score
TCATCTTGCAGATGTCGCACTGTGCTA | 0.996 z-score
TCACTTTTCACTTTACAACTGTGCTAG | 5.8 z-score
TGATAAATCTTTGTTGGAGGGGTGCTA | -0.473 z-score
GACGGTTTCGACTATAGGGACGTGCTA | 2.46 z-score
TCATTTTTTTCTATATGACTGTGCTAG | 2.02 z-score
TCACCTTTCAGTTTTCCACTGTGCTAG | 4.18 z-score
CTGCCTTTCAATCCTAGGCCGTGCTAG | 0.761 z-score
TCAACTCTGTGCTTTCCTACTGTGCTA | 1.73 z-score
TCAACTCTCTGCTTGTAACTGTGCTAG | 1.19 z-score

Block 3
Target: RNA binding protein fox-1 homolog 2, RRM domain, GST-SBP tag (RBFOX2, Homo sapiens, UniProt O43251-10, residues 100-194)
Technique: RNA Bind-n-Seq
Molecule type: RNA
Medium: in vitro
Tested at: 365 nM
Setting: natural RNA segment, single round, ends assumed
Relative to: no-protein control
Direction: higher = stronger binding
All sequences stand within: GGGAGUUCUACAGUCCGACGAUC … UGGAAUUCUCGGGUGCCAA
Target sequence (chain): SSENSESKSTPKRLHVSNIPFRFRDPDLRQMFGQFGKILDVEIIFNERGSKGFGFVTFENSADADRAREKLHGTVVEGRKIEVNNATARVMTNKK
Oligonucleotide | RBNS enrichment (R)
UUUUCACCACGCUCAGGCAAAUACUCUGCAGCUGUUAUUGGAUGGGCCAUUCCGAUCUGCCUUAUGAAAUUCCACAAGAAUGUUAGGGGCACCUAUGGGAUCUCUAGUGG | 3.28
CAAAAAGUGGUGCUGAGGGACUCCUAAGUCGGCCGUAGCACCUCGAGCCCUGGGCUUUGAAGGCAGCCUUAGGACAAACUCCUCUGCCUAAGGCAUCAUGCCUCAGCCCC | 0.57
GAGCACUGGUCACAUUGAAGGUGCUGGGUAAGUGGUAGCUCUUGUUGCUUCCCGUUCAGCGUCACAUCUGCAGUGGAGCCUGAAAAGGCUCCACAUUAGGUCACCUGUGC | 0.238
UCAGAGUUCUAAGGACCAGCAUUCUGGGGGCCAUUUUCUCUACAGGCAAAUGGAAUUGCUUUUCCAUAACAUCCAAAUUGUAAUGUGGUUGCUGCUGAAGGAGGAGGCAG | 0.456
AAUGAAAAAGAAAAGAUAGCCUUGGACUUUUUUUUCAUGGGAGGUUUGGAGGUCAAGCAUGUAGAAGGAAAAGGCUGUAGUCAUGAAUAUAGAACUGUCUGCUCUCCACC | 3.21
GUGUGUGAAGAUAGCUUUUUGGUAUAUUUUAAAAGUGCACAAAUUUAAGAUCUUACUGCUUUAUAAAGUGCUUUAUGAAUUAUAGGAAAAUAAACACAUUUUAGAUCUUA | 1.26
GACUGCAUUGUUUUCUAGCCCCGAGGUGGUGGCACGGGCCCUCCCUCCCAGCGCUCUGGGAGCCACGCCUAUGCCCUGCCCUUCCUCAGGGCCCCUGGGGAUCUUGCCCC | 0.273
UGCAUGGAAUAUAUCUGCUGUCAUCUUAAUCUUAGUUUGGAUCAACCUCAUUUAUUUAUCUUAAAAUUAACCAGCUUUCUCAGUUCCAUCCAAAGAAGAUACAGUAUGAA | 1.93
UUUUUUGAUUUUUGCUGACUUAAAAAGGAUUAAUUUGGGCAGACAUUAUAAAAAGGAAAGGGUUAAUAUAUUUUUGGACUCUGUAGGACAAAAGAGAACUGGUUAACCUU | 0.656
CAGAGUGCCUAAGAGAAACCCUUGCACCUGGGAGCGCUGCUUGGCUCUAUCUCUACAACAUUUAAUGAAUUUCUUGUAAACCACUUUGAGAUACAUUGUUUUGGAAAUUC | 0.551
CAUUCAUUUCCACCUGGGAAUUUCUGGUGCCAUGCCAGAAAGAAUGAGGAACCUGUAUUCCUCUUCUUCGUGAUAAUAUAAUCUCUAUUUUUUUAGGAAAACAAAAAUGA | 0.405
UAUCUUGAUGCCAGUUUGCCAAAUCUGAUACUGUGAAAAAAUUUGAUAGCUUUUCUAAUGUCUGACUAGUAAAUUUUAAAAUGUCAUUCUUUUACAAAUCAUAAUUAGUA | 0.717

Further values, each from its own experiment
Molecule | target | assay | test system | conditions | how to read | measurement | result
PhoQ, residues 284 288 289 292 302 303 SSTLSG | PhoP, residues 12 14 15 18 19 LHHSG (Escherichia coli, UniProt P23836) | Sort-seq, refers to: YFP reporter | E. coli | PhoQ-PhoP variant library, together with: 10 µM Mg2+ | relative to: high Mg2+ state, higher = stronger signaling | fold induction | 6.81

Some of these lines once more (block 2):
Oligonucleotide | fitted relative affinity
TAAGGTTCCCTTTTCCTTTAGTGCTAG | 3.07 z-score
TTAGTACTGGGGACTGGGTTAGTGCTA | -0.437 z-score
TTCTAAACCATTTTGGTTTTGTGCTAG | 0.69 z-score
